Published values collected from several papers.
Compare with care: the assays were run in different laboratories. Values after ≈ are worked out from the molar mass of the structure shown.
Organism: herpes simplex virus 1

Compound	assay	test system	setting	quantity	value
Cc1cn(C2CC(N(C)C)C(CO)O2)c(=O)[nH]c1=O (centres unmarked)	viral replication	HEL, TK- KOS ACV-resistant	–	EC50	> 0.37 µM
CC(C)OC(=O)[C@H](Cc1ccccc1)NP(=O)(COCCn1cnc2c(=O)[nH]c(=O)[nH]c21)N[C@@H](Cc1ccccc1)C(=O)OC(C)C	cytopathic effect	HEL, KOS TK- acyclovir-resistant	–	EC50	> 100 µM
CCOC(=O)[C@@H](C)NP(=O)(CO[C@H](CF)Cn1cnc(N)nc1=O)N[C@H](C)C(=O)OCC	cytopathic effect	HEL, KOS, TK-deficient, acyclovir-resistant	–	EC50	> 100 µM
Cc1cc(O)c(=O)c(O)c(O)c1C(=O)c1ccc(-c2ccccc2)cc1	viral replication	–	–	EC50	~0.05 µM
NCCCCCO[C@H]1O[C@H](COS(=O)(=O)O)[C@@H](O[C@@H]2O[C@@H](C(=O)O)[C@@H](O[C@H]3O[C@H](COS(=O)(=O)O)[C@@H](O[C@@H]4O[C@@H](C(=O)O)[C@@H](O[C@H]5O[C@H](COS(=O)(=O)O)[C@@H](O[C@@H]6O[C@@H](C(=O)O)[C@@H](O[C@H]7O[C@H](COS(=O)(=O)O)[C@@H](O[C@@H]8O[C@@H](C(=O)O)[C@@H](O)[C@H](O)[C@H]8OS(=O)(=O)O)[C@H](O)[C@H]7NS(=O)(=O)O)[C@H](O)[C@H]6OS(=O)(=O)O)[C@H](O)[C@H]5NS(=O)(=O)O)[C@H](O)[C@H]4OS(=O)(=O)O)[C@H](O)[C@H]3NS(=O)(=O)O)[C@H](O)[C@H]2OS(=O)(=O)O)[C@H](O)[C@H]1NS(=O)(=O)O	viral spread	human corneal epithelial cells, GFP reporter	24 h, added 2 h post infection	IC50	42 µg/mL (≈ 17.4 µM)
O=C1/C(=N\NC(=S)NN=Cc2cccs2)c2ccccc2N1Cc1ccccc1	viral cytopathogenicity	HEL, KOS TK-deficient acyclovir-resistant	–	EC50	> 20 µM
O=C(Cc1csc2nc(-c3ccc(Br)cc3)cn12)NN=C1CCCC1	viral cytopathicity, microscopy	HEL, acyclovir-resistant	–	EC50	> 100 µg/mL
CCCCCCC(CC=CCCCCCCCC(=O)OCCOCn1cnc2c(=O)[nH]c(N)nc21)OC(=O)CCCCC1SCC2NC(=O)NC21 (centres unmarked)	viral replication, plaque reduction	HFF, E-377	–	EC90	21.9 µM
CCOC(=O)[C@@H](C)NP(=O)(CO[C@H](CF)CN1CNC(N)=NC1=O)N[C@H](C)C(=O)OCC	cytopathic effect	HEL, KOS, TK-deficient, acyclovir-resistant	–	EC50	> 100 µM
NCCCCCO[C@H]1O[C@H](COS(=O)(=O)O)[C@@H](O[C@@H]2O[C@@H](C(=O)O)[C@@H](O[C@H]3O[C@H](COS(=O)(=O)O)[C@@H](O[C@@H]4O[C@@H](C(=O)O)[C@@H](O[C@H]5O[C@H](COS(=O)(=O)O)[C@@H](O[C@@H]6O[C@@H](C(=O)O)[C@@H](O)[C@H](O)[C@H]6OS(=O)(=O)O)[C@H](O)[C@H]5NS(=O)(=O)O)[C@H](O)[C@H]4OS(=O)(=O)O)[C@H](O)[C@H]3NS(=O)(=O)O)[C@H](O)[C@H]2OS(=O)(=O)O)[C@H](O)[C@H]1NS(=O)(=O)O	viral spread	human corneal epithelial cells, GFP reporter	24 h, added 2 h post infection	IC50	55 µg/mL (≈ 30 µM)
CCCCCCCCCC(=O)OCC1OC(n2cc(C)c(=O)[nH]c2=O)CC1N(C)C (centres unmarked)	viral replication	HEL, TK- KOS ACV-resistant	–	EC50	> 0.23 µM

Excerpt of the above:
Compound	assay	test system	setting	quantity	value
CCCCCCCCCC(=O)OCC1OC(n2cc(C)c(=O)[nH]c2=O)CC1N(C)C (centres unmarked)	viral replication	HEL, TK- KOS ACV-resistant	–	EC50	> 0.23 µM
O=C1/C(=N\NC(=S)NN=Cc2cccs2)c2ccccc2N1Cc1ccccc1	viral cytopathogenicity	HEL, KOS TK-deficient acyclovir-resistant	–	EC50	> 20 µM
